Measured values gathered from unrelated publications.
Each line is one published result; not all experiments were run side by side. “And” joins repeats or separate records; there may be more than shown. ± gives the spread as reported.
OVA5: Lysine--tRNA ligase, chloroplastic/mitochondrial (OVA5, Arabidopsis thaliana, UniProt Q9LJE2)
PRKACA: cAMP-dependent protein kinase catalytic subunit alpha (PRKACA, Homo sapiens, UniProt P17612)
XDH: Xanthine dehydrogenase/oxidase (XDH, Homo sapiens, UniProt P47989)
NTRK1: High affinity nerve growth factor receptor (NTRK1, Homo sapiens, UniProt P04629)
SLC22A2: Solute carrier family 22 member 2 (SLC22A2, Homo sapiens, UniProt O15244)
AKT1: RAC-alpha serine/threonine-protein kinase (AKT1, Homo sapiens, UniProt P31749)

C[C@H](NC(=O)c1snc(N)c1Cl)C1CCCCC1 gave an IC50 of 25.1 µM (OVA5; enzyme activity, inhibitor).
The IC50 of C[C@@H]1C[C@@H](N)CN(C(=O)C2=CN(c3ncnc4[nH]ccc34)CCS2)C1 is reported as 0.0056 ± 0.0007 µM (PRKACA).
With O=c1cc2oc3cc(O)c(-c4ccc(O)cc4O)cc3nc-2cc1-c1ccc(O)cc1O the IC50 was over 75 µM (XDH; enzyme activity, inhibitor).
The IC50 of CO[C@@H]1[C@H](O)[C@@H](O)C(NCc2ccc(C)cc2)=N[C@@H]1CO is reported as over 5000 µM (sweet almond β-glucosidase; enzyme activity, inhibitor; pH 5.00, together with: 2-chloro-4-nitrophenyl β-D-glucopyranoside).
For CC(C(=O)Nc1ccc(C2CCCCC2)cc1)n1cncn1 (stereo not shown), the hepatic clearance was 41 mL/min/kg (rat liver microsomes; 1 µM).
The IC50 of C#Cc1c(N)nsc1C(=O)NCC1CCCC1 is reported as 31.6 µM (OVA5; enzyme activity, inhibitor).
The IC50 of O=C1N[C@H](CO)[C@H](O)[C@H](O)[C@H]1O is reported as over 1000 µM (sweet almond β-glucosidase; enzyme activity, inhibitor; pH 5.00, together with: 2-chloro-4-nitrophenyl β-D-glucopyranoside).
NC(=O)[C@@H]1CC[C@@H]2CN1C(=O)N2OS(=O)(=O)O gave an IC50 of 13 µM (beta-lactamase RAD-1 (Riemerella anatipestifer); enzyme activity, inhibitor, spectrophotometric reporter substrate hydrolysis).
CC(C)(C)Cn1c(N)nc2ccc(-c3[nH]c(C(C)(C)C)nc3-c3ccc(F)cc3)nc21 gave an IC50 of 0.011 to 0.246 µM (EGFR common activating mutants; enzyme activity, inhibitor; together with: 1 mM ATP).
Nc1nsc(C(=O)NCC2CCCCC2)c1C#CC1CC1 has an IC50 of over 100 µM (OVA5; enzyme activity, inhibitor).
The IC50 of C=CC(=O)N1CCN(c2nc(=O)n(-c3c(C)ccnc3C(C)C)c3nc(-c4c(O)cccc4F)c(F)cc23)[C@@H](C)C1 is reported as 0.087 µM (GTPase HRas (HRAS, Homo sapiens, UniProt P01112, C181S/C184S/C186S/G12C)).
The IC50 of Cc1noc(C)c1C1=CN(c2ncnc3[nH]ccc23)CCS1 is reported as over 10 µM (PRKACA).
The IC50 of Cc1nn2c(-c3c(C)nn(C)c3-c3ccc(C(F)(F)F)cc3)nc(CO)c2c(=O)[nH]1 is reported as 1.77 µM (PDE5A (Homo sapiens, UniProt O76074); enzyme activity, inhibitor, scintillation proximity).
With COc1cc(N2CCC(N3CCN(C)CC3)CC2)ccc1Nc1ncc(Cl)c(Nc2ccccc2P(C)(C)=O)n1 the IC50 was 0.8 µM (NTRK1; enzyme activity, inhibitor; together with: 1 mM ATP).
The IC50 of Cc1c(Cc2ccccc2)c(=O)oc2c(C)c(OCC(=O)NN=Cc3ccco3)ccc12 is reported as 0.484 ± 0.0289 µM (Phosphatidylinositol 4,5-bisphosphate 3-kinase catalytic subunit beta isoform, with p85 alpha (PIK3CB, Homo sapiens, UniProt P42338); enzyme activity, inhibitor, ADP-Glo).
For CCn1c(-c2nc3cc(C(=O)N4CCC[C@@H](N)C4)cc(OC)c3n2C)cc2cccnc21, the IC50 was 6.31 µM (HTR3A (Homo sapiens, UniProt P46098); intracellular calcium, antagonist, fluorescence).
CC/C(=N\NC(=O)NCc1cccc(O)c1)c1ccc(O)c(C)c1O gave an IC50 of 0.019 ± 0.00248 µM (SGK3 (Homo sapiens, UniProt Q96BR1); kinase activity, inhibitor).
Nc1nsc(C(=O)NCC2CCCC2)c1Cl has an IC50 of 15.8 µM (OVA5; enzyme activity, inhibitor).
CC1(C)COc2ccc(F)cc2CN2c3nc4c(cnn4cc3OC[C@H]2C(F)F)C(=O)N1 gave an IC50 of 0.0006 µM (NTRK1; enzyme activity, inhibitor; together with: 1 mM ATP).
C=CC(=O)Nc1cc(Nc2nccc(-c3cn(C)c4ccccc34)n2)c(OC)cc1N(C)CCN(C)C has an IC50 of 7.98 µM (SLC22A2; transport).
With NC(=O)CCNC(=O)c1ccc([C@H]2[C@@H](F)[C@@H](F)C[C@@H](F)[C@H]2F)cc1 the hepatic clearance was 6.1 mL/min/kg (liver microsome stability; rat liver microsomes; 1 µM).
For Brc1c(Br)c(Br)c2n[nH]nc2c1Br, the IC50 was 1.08 ± 0.15 µM (Dyrk1a (Rattus norvegicus, UniProt Q63470); inhibitor).
For CC[n+]1ccc(/C=C/C=C/c2ccc(N(C)C)cc2)c2ccccc21.[O-][Cl+3]([O-])([O-])[O-], the IC50 was 0.102 µM (Amyloid-beta precursor protein, amyloid-beta fibrils (APP, Homo sapiens, UniProt P05067)).
For O=C(O)CC[C@H](NC(=O)N[C@@H](CCCCNC(=O)[C@H](Cc1ccc2ccccc2c1)NC(=O)[C@H]1CC[C@H](CNC(=O)CN2CCN(CC(=O)O)CCN(CC(=O)O)CCN(CC(=O)O)CC2)CC1)C(=O)O)C(=O)O, the IC50 was 0.00338 µM (FOLH1 (Homo sapiens, UniProt Q04609); competitive binding; 22Rv1; together with: 68Ga-labelled compound).
For N[C@H]1CCCN(C(=O)C2=CN(c3ncnc4[nH]ccc34)CCS2)C1, the IC50 was under 0.1 µM (PRKACA).
With O=C(Nc1cccc2c(=O)cc(-c3nnn[nH]3)oc12)c1ccc(OCCCCc2ccccc2)cc1 the IC50 was 1.4 µM (LRRC8A/LRRC8C (Homo sapiens, UniProt Q8IWT6+Q8TDW0, L134K/L136K); ion current, inhibitor, whole-cell patch clamp; HCT116 LRRC8-/- transfected; at +100 mV).
With C[C@H]1CCN(C(=O)C2=CN(c3ncnc4[nH]ccc34)CCS2)C[C@@H]1N the IC50 was 0.0074 ± 0.0004 µM (PRKACA).
With N=C(N)Nc1cccc(C(=O)NCC(=O)NC[C@H](NC(=O)c2c(Cl)cccc2Cl)C(=O)O)c1 the IC50 was 0.0501 µM (Integrin alpha-5/beta-1 (Homo sapiens, UniProt P05556+P08648); cell adhesion, inhibitor; SW480; together with: fibronectin 0.3 µg/mL).
Cc1cnc(-c2ccc(-c3ccc(NC(=O)Nc4c(F)cc(F)cc4F)cc3F)c3c2C(=O)NC3)[nH]1 gave an IC50 of 0.0148 µM (Aurora kinase C (AURKC, Homo sapiens, UniProt Q9UQB9); enzyme activity, inhibitor, mobility shift; together with: ATP 1 mM).
Nc1nsc(C(=O)NC[C@@H]2CCCC[C@@H]2Cl)c1Cl gave an IC50 of 10 µM (OVA5; enzyme activity, inhibitor).
The IC50 of CC/C(=C(\c1ccccc1)c1ccc(OCCN(C)C)cc1)c1ccccc1 is reported as 30 µM (CARM1 (Homo sapiens, UniProt Q86X55); arginine methylation, reporter assay, methyl-PABP1 antibody; HEK293, Tet-induced).
For O=C1OC2(c3ccccc31)c1cc(Br)c(O)c(Br)c1Oc1c2cc(Br)c(O)c1Br, the IC50 was over 75 µM (XDH; enzyme activity, inhibitor).
For Nc1ccnc(-c2ccccc2)c1, the IC50 was about 1100 µM (KCNC1 (Homo sapiens, UniProt P48547); potassium current, inhibitor, whole-cell patch clamp; HEK293T; +40 mV pulse).
For O=[N+]([O-])c1ccccc1-c1ccc(CN2CCCC2c2cccc(N3CCCC3)c2)o1 (stereo not shown), the IC50 was < 10 µM and 5 to 7 µM (Interleukin-1 receptor-like 1, with IL-33 (IL1RL1, Homo sapiens, UniProt Q01638); binding, AlphaLISA).
For O=C(NO)c1ccc(Cn2cnc3c(Nc4cccc([N+](=O)[O-])c4)ncnc32)cc1, the IC50 was 19.2 µM (AKT1; kinase activity, inhibitor; together with: ATP 10 µM).
CCc1nc(C(N)=O)c(Nc2ccc(N3CCC(N4CCN(C)CC4)CC3)c(OC)c2)nc1NC1CCOCC1 has an IC50 of 0.122 µM (SLC22A2; OCT2-mediated TEA uptake, inhibitor; HEK293 expressing OCT2; 15 min, together with: radiolabelled tetraethylammonium).
For Sc1ncnc2nc[nH]c12, the IC50 was 26.9 µM (CUGBP Elav-like family member 1 (CELF1, Homo sapiens, UniProt Q92879, del215-384); CELF1-RNA binding, inhibitor, fluorescence polarization; CELF1 20 nM, preincubation 30 min, together with: RNA 10 nM).
CC[C@@H]1[C@H](F)C(=O)N[C@@H]1COc1nccc2cc(C(N)=O)c(OC)cc12 has an IC50 of over 5 µM (AKT1; kinase activity, inhibitor, ActivX ATP-site probe profiling; THP-1 cell lysate; ATP loop site).
C[C@]12CC[C@@H]3c4ccc(O)cc4C[C@@H](CCCCCCCCC[S+]([O-])CCCC(F)(F)C(F)(F)F)[C@H]3[C@@H]1CC[C@@H]2O (stereo partly shown) gave an IC50 of over 10 µM (NR3C1 (Homo sapiens, UniProt P04150); GR receptor activity, agonist, cell-based).
The IC50 of CC1(CNC(=O)c2snc(N)c2Cl)CCCCC1 is reported as 10 µM (OVA5; inhibitor).
C1=C(c2cc[nH]n2)SCCN1c1ncnc2[nH]cnc12 gave an IC50 of over 10 µM (PRKACA).
The IC50 of CCc1ccc(NC(=O)Nc2c[nH]c3ccccc23)cc1 is reported as 9.5 ± 3 µM (Triggering receptor expressed on myeloid cells 1, dimer (TREM1, Homo sapiens, UniProt Q9NP99); split luciferase reporter; human cells; 6 h, treatment 48 h after induction, together with: doxycycline induction).
The IC50 of Cc1ncsc1-c1ccc(CNC(=O)[C@@H]2C[C@H](O)CN2C(=O)[C@@H](NC(=O)C2(F)CC2)C(C)(C)C)c(OCCOc2ccc(CN3CCN(c4cc(-c5ccccc5O)nnc4N)CC3)cc2)c1 is reported as 0.54 µM (SWI/SNF-related matrix-associated actin-dependent regulator of chromatin subfamily A member 4, bromodomain (SMARCA4, Homo sapiens, UniProt P51532); binding, TR-FRET competition; binary without VCB).
CN1CCN(c2ccc(Nc3ncc4cc(C#N)c(=O)n(C5CCCC5)c4n3)cc2)CC1 has an IC50 of 0.0722 µM (CSNK2A2 (Homo sapiens, UniProt P19784)).
For Cc1nn(-c2nc3ccccc3[nH]2)c(O)c1C(c1ccccc1C(=O)O)c1c(C)nn(-c2nc3ccccc3[nH]2)c1O, the IC50 was 4.29 µM and 8.13 µM (CGAS (Homo sapiens, UniProt Q8N884); enzyme activity, inhibitor, pyrophosphatase-coupled; human cGAS).
With Nc1nsc(C(=O)NCc2cccc(Cl)c2Cl)c1Cl the IC50 was over 100 µM (OVA5; enzyme activity, inhibitor).
The IC50 of O=C(N[C@H]1CCNC1)C1=CN(c2ncnc3[nH]ccc23)CCS1 is reported as under 0.1 µM (PRKACA).
For CN(C)c1ccc2nc3ccc(=[N+](C)C)cc-3sc2c1, the IC50 was over 75 µM (XDH; enzyme activity, inhibitor).
With Nc1nsc(C(=O)NCc2ccccn2)c1Cl the IC50 was over 100 µM (OVA5; enzyme activity, inhibitor).

Some of these lines once more:
The IC50 of Cc1ncsc1-c1ccc(CNC(=O)[C@@H]2C[C@H](O)CN2C(=O)[C@@H](NC(=O)C2(F)CC2)C(C)(C)C)c(OCCOc2ccc(CN3CCN(c4cc(-c5ccccc5O)nnc4N)CC3)cc2)c1 is reported as 0.54 µM (SWI/SNF-related matrix-associated actin-dependent regulator of chromatin subfamily A member 4, bromodomain (SMARCA4, Homo sapiens, UniProt P51532); binding, TR-FRET competition; binary without VCB).
CN1CCN(c2ccc(Nc3ncc4cc(C#N)c(=O)n(C5CCCC5)c4n3)cc2)CC1 has an IC50 of 0.0722 µM (CSNK2A2 (Homo sapiens, UniProt P19784)).
For Cc1nn(-c2nc3ccccc3[nH]2)c(O)c1C(c1ccccc1C(=O)O)c1c(C)nn(-c2nc3ccccc3[nH]2)c1O, the IC50 was 4.29 µM and 8.13 µM (CGAS (Homo sapiens, UniProt Q8N884); enzyme activity, inhibitor, pyrophosphatase-coupled; human cGAS).
With Nc1nsc(C(=O)NCc2cccc(Cl)c2Cl)c1Cl the IC50 was over 100 µM (OVA5; enzyme activity, inhibitor).
The IC50 of O=C(N[C@H]1CCNC1)C1=CN(c2ncnc3[nH]ccc23)CCS1 is reported as under 0.1 µM (PRKACA).
